Measurements of several laboratories.
Lines come from different studies, so protocols differ.
Organism: Enterococcus faecalis

With COc1ncc(O)c2c1C[C@H]1C[C@H]3[C@H](N(C)C)C(O)=C(C(N)=O)C(=O)[C@@]3(O)C(O)=C1C2=O.Cl.Cl the MIC was over 32 µg/mL (tet(M)-carrying).
The MIC of CC[C@H](C)[C@H](NC(=O)[C@@H](NC(=O)[C@H](Cc1ccccc1)NC(=O)CNC(=O)[C@H](CCC(N)=O)NC(=O)[C@H](CCCCN)NC(=O)[C@H](C)N)C(C)C)C(=O)N[C@@H](Cc1ccc(O)cc1)C(=O)N[C@@H](CCCNC(=N)N)C(=O)N[C@H](C(=O)N[C@@H](CCCNC(=N)N)C(=O)N[C@H](C(=O)N[C@@H](CCCNC(=N)N)C(=O)N[C@@H](CCCNC(=N)N)C(=O)NCC(=O)N[C@@H](CC(N)=O)C(=O)N[C@@H](CCCNC(=N)N)C(=O)N[C@@H](CCCCN)C(N)=O)C(C)C)C(C)C is reported as over 100 µM (broth dilution; KCTC 3511).
For CN1C(=O)Cc2ccc(F)c(CNCCCC3CN(c4ccc5c(n4)NC(=O)CO5)C(=O)O3)c21 (centres unmarked), the MIC was 0.25 µg/mL (ATCC 29212).
With CN(C)[C@@H]1C(O)=C(C(N)=O)C(=O)[C@@]2(O)C(O)=C3C(=O)c4c(O)cncc4C[C@H]3C[C@@H]12.Cl.Cl the MIC was over 32 µg/mL (tet(M)-carrying).
The MIC of CC(C)C[C@@H](NC(=O)[C@H](C)NC(=O)CNC(=O)[C@@H](NC=O)C(C)C)C(=O)N[C@@H](C)C(=O)N[C@@H](C(=O)N[C@H](C(=O)N[C@@H](C(=O)N[C@@H](Cc1c[nH]c2ccccc12)C(=O)N[C@H](CC(C)C)C(=O)N[C@@H](Cc1ccc2cc[nH]c2c1)C(=O)N[C@H](CC(C)C)C(=O)N[C@@H](Cc1c[nH]c2ccccc12)C(=O)N[C@H](CC(C)C)C(=O)N[C@@H](Cc1c[nH]c2ccccc12)C(=O)NCCO)C(C)C)C(C)C)C(C)C is reported as 0.13 µM (broth microdilution; JCM 5803).
Cc1ccc2[nH]c3c(c2c1)CCCC3NCCc1ccc(Br)cc1 (centres unmarked) gave an MIC of 4 µg/mL (broth microdilution; JH2-2).
CCCCCCCCCCCCCCCC(=O)NS(=O)(=O)OCC has an MIC of over 200 µg/mL (ATCC 33186).
For CC[C@H](C)[C@H](NC(=O)[C@H](CC(C)C)NC(=O)[C@H](CCCCN)NC(=O)[C@H](CC(C)C)NC(=O)CNC(=O)[C@@H](NC(=O)[C@H](CO)NC(=O)[C@@H](NC(=O)[C@@H](NC(=O)[C@H](CCC(N)=O)NC(=O)[C@H](Cc1c[nH]c2ccccc12)NC(=O)[C@H](CCCNC(=N)N)NC(=O)[C@H](CC(N)=O)NC(=O)[C@H](CCCNC(=N)N)NC(=O)[C@H](CCCNC(=N)N)NC(=O)[C@@H](NC(=O)[C@H](Cc1ccccc1)NC(=O)[C@H](CCCNC(=N)N)NC(=O)CNC(=O)[C@H](C)NC(=O)[C@H](CCCNC(=N)N)NC(=O)[C@H](CCCNC(=N)N)NC(=O)[C@H](CCCCN)NC(=O)[C@H](Cc1ccccc1)NC(=O)[C@H](CCCNC(=N)N)NC(=O)CNC(=O)[C@H](Cc1c[nH]c2ccccc12)NC(=O)[C@H](CCCNC(=N)N)NC(=O)CNC(=O)[C@H](CCCNC(=N)N)NC(=O)[C@@H](N)[C@@H](C)O)[C@@H](C)CC)[C@@H](C)CC)[C@@H](C)CC)[C@@H](C)O)C(=O)NCC(=O)O, the MIC was 4.79 µM (ATCC 29212; highest concentration 50 µM).
For CC[C@H](C)[C@H](NC(=O)[C@H](C)NC(=O)[C@H](CCCCN)NC(=O)[C@H](CCCNC(=N)N)NC(=O)[C@H](CCCCN)NC(=O)[C@H](CCCNC(=N)N)NC(=O)[C@H](CCCCN)NC(=O)[C@@H](N)CCCNC(=N)N)C(=O)N[C@@H](CO)C(=O)NCC(=O)N[C@@H](CO)C(=O)N[C@@H](CC(C)C)C(=O)N[C@H](C(=O)N[C@H](C(=O)N[C@@H](CC(C)C)C(=O)N[C@@H](Cc1ccccc1)C(=O)NCC(=O)N[C@@H](Cc1ccc(O)cc1)C(N)=O)[C@@H](C)O)C(C)C, the MIC was 64 µM (broth microdilution; ATCC 29212; highest value reported).
The MIC of CCCCCCCCCCCCN(C)C(=O)CP(=O)(O)O is reported as 200 µg/mL (ATCC 33186).
With CN(C)[C@@H]1C(O)=C(C(N)=O)C(=O)[C@@]2(O)C(O)=C3C(=O)c4c(O)cnc(Cl)c4C[C@H]3C[C@@H]12.Cl the MIC was over 32 µg/mL (tet(M)-carrying).
The MIC of CC[C@H](C)[C@H](NC(=O)[C@H](CCCCN)NC(=O)[C@H](CCCCN)NC(=O)[C@H](CCCCN)NC(=O)[C@H](CCCCN)NC(=O)[C@H](CCCCN)NC(=O)[C@@H](N)CCCCN)C(=O)N[C@@H](CO)C(=O)N[C@@H](Cc1ccccc1)C(=O)N[C@@H](CC(C)C)C(=O)NCC(=O)N[C@@H](CO)C(=O)N[C@@H](CCCCN)C(=O)N[C@H](C(=O)N[C@H](C(=O)N[C@H](C(=O)N[C@@H](CC(C)C)C(=O)N[C@@H](CC(C)C)C(=O)N[C@@H](CCCCN)C(=O)N[C@@H](CCCNC(=N)N)C(N)=O)C(C)C)C(C)C)C(C)C is reported as 16 µM (broth microdilution; ATCC 29212; highest value reported).
CC(C)C[C@H](NC(=O)[C@@H](NC(=O)[C@H](CCCNC(=N)N)NC(=O)[C@H](CCC(N)=O)NC(=O)[C@H](Cc1ccccc1)NC(=O)[C@H](Cc1ccc(O)cc1)NC(=O)[C@H](CC(N)=O)NC(=O)[C@H](Cc1c[nH]c2ccccc12)NC(=O)[C@@H](NC(=O)[C@H](CCCNC(=N)N)NC(=O)[C@H](CCCCN)NC(=O)[C@@H](N)Cc1ccccc1)C(C)C)C(C)C)C(=O)N[C@H](C(=O)N[C@@H](CCCCN)C(=O)N[C@@H](CCCCN)C(N)=O)C(C)C gave an MIC of 50 µM (broth dilution; KCTC 3511).
CN[C@H](CC(C)C)C(=O)N[C@H]1C(=O)N[C@@H](CC(N)=O)C(=O)N[C@H]2C(=O)NC3C(=O)N[C@H](C(=O)N[C@H](C(=O)NCCC[N+](C)(C)C)c4cc(O)cc(O)c4-c4cc3ccc4O)[C@H](O)c3ccc(c(Cl)c3)Oc3cc2cc(c3OC2OC(CO)C(O)[C@H](O)[C@@H]2O[C@H]2CC(C)(NCc3ccc(-c4ccc(Cl)cc4)cc3)[C@H](O)[C@H](C)O2)Oc2ccc(cc2Cl)[C@H]1O (some centres unmarked) has an MIC of 1 µg/mL (BM 4166 vanA).

Excerpt of the above:
Cc1ccc2[nH]c3c(c2c1)CCCC3NCCc1ccc(Br)cc1 (centres unmarked) gave an MIC of 4 µg/mL (broth microdilution; JH2-2).
CC(C)C[C@H](NC(=O)[C@@H](NC(=O)[C@H](CCCNC(=N)N)NC(=O)[C@H](CCC(N)=O)NC(=O)[C@H](Cc1ccccc1)NC(=O)[C@H](Cc1ccc(O)cc1)NC(=O)[C@H](CC(N)=O)NC(=O)[C@H](Cc1c[nH]c2ccccc12)NC(=O)[C@@H](NC(=O)[C@H](CCCNC(=N)N)NC(=O)[C@H](CCCCN)NC(=O)[C@@H](N)Cc1ccccc1)C(C)C)C(C)C)C(=O)N[C@H](C(=O)N[C@@H](CCCCN)C(=O)N[C@@H](CCCCN)C(N)=O)C(C)C gave an MIC of 50 µM (broth dilution; KCTC 3511).
